Experimental data of several laboratories.
A part holds a random share of what one study measured.
UniProt P62837, sequence (whole entry, looked up): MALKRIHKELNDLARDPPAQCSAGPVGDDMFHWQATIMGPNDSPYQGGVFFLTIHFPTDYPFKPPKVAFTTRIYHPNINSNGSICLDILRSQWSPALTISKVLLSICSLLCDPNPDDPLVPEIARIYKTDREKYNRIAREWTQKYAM

Study 1
Target: RNA binding protein fox-1 homolog 2, RRM domain, GST-SBP tag (RBFOX2, Homo sapiens, UniProt O43251-10, residues 100-194)
Method: RNA Bind-n-Seq
Molecule type: RNA
Sample: in vitro
Concentration: 365 nM
Setting: natural RNA segment, single round, ends assumed
Reference: no-protein control
Reading: higher = stronger binding
Residues (chain): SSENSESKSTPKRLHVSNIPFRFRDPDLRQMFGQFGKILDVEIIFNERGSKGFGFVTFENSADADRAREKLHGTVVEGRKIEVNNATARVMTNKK
Strand	RBNS enrichment (R)
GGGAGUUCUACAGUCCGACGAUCACGCUAAGAAGGAAUUACGCGAAUCGGCUCAAAAGUUAUGGUGGCCAAGAAGUGAUACAGGGUGUCAUAUGCAAAUUAGCAAACAGGAAAGGCGGCAAUAUUCAAACCAGUGGAAUUCUCGGGUGCCAA	1.04
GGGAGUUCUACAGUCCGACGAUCAAUAGGACUUGUUUUUUGUUUUUGUUUUGUUGCACUGAAGUAUGACAAAUAGUGUUAUUGGAAGGGAUGUGUAAUUUUUCUGUAUAGACAGGAGAAGAAAUAACUAUCUUUGGAAUUCUCGGGUGCCAA	2.58
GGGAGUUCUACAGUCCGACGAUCUAUGAAUUUUCAAUGCAGCAAAGCUGACUUUCUUUCGUACUCCCAAUAAAUGACUCUUAACAGUAAAUACUGAGUGAAGCCUCUUCUUUACUUACUCCCGGUAAACUGAAUGGAAUUCUCGGGUGCCAA	0.722
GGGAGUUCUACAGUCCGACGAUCCACCAAACCCUUACUUGGUGUCUGCACCUCCUUUCCCUCUCUCCAUCUUCCAAUCCCUGGAAAAGUCUGGUCUGAGUGUGACUUGGGAAGCUUUCAGUGCUGCUGUUUGGUGGAAUUCUCGGGUGCCAA	0.423
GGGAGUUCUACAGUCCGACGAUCCUUGCUUCCUCUUUAACCCGGAGAGGGACUCCCCUGUGGCUAUCCCCCAUCUCUACCAACAAAGUGUAUUCUUCAUAGAUAUUAGAUAAAUCUUCCAGGCUUCAUCAUCAUGGAAUUCUCGGGUGCCAA	0.863
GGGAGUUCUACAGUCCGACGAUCCAGCCAGGGGGCGCCCACAACCCCUUCAAGGACUGAAGCCUCAAGCUGCCCGGGGUGGCACGUCGCGAAAGCUUGUUUCCCCACGGUCUGGCUUCUGCAGGGGAAAUUUCUGGAAUUCUCGGGUGCCAA	0.435
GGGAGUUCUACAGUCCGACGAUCGUAUCCCUCACUUACCAAGAGGAGAAUGGAGGGAUAAUGGACUCACCCUAGCCUAGGGCUUCGACAUUGCAUGCUGGGAUCCAGCUCCUACCCUUCCUGCACUCCCUUCCUGGAAUUCUCGGGUGCCAA	8.25
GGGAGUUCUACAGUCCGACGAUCCAUCCAUCUGCUUCUCCAUUCCCUGUCUUUUAAGUCCAGCACAUUGGGAGACAAACUAAGCAAAUCUGGGAUGGGGGCAGUCUGACCUUCUUCCUGCUUCGGUGAUCCGAUGGAAUUCUCGGGUGCCAA	0.313

Study 2
Target: Microphthalmia-associated transcription factor, full length (MITF, Homo sapiens, UniProt O75030-10, residues 1-413)
Method: protein-binding microarray
Molecule type: double-stranded DNA, one strand shown
Sample: in vitro
Concentration: not given
Setting: k-mer, scored over probes, only values ≥0.25
Reading: higher = stronger binding
Target sequence (chain): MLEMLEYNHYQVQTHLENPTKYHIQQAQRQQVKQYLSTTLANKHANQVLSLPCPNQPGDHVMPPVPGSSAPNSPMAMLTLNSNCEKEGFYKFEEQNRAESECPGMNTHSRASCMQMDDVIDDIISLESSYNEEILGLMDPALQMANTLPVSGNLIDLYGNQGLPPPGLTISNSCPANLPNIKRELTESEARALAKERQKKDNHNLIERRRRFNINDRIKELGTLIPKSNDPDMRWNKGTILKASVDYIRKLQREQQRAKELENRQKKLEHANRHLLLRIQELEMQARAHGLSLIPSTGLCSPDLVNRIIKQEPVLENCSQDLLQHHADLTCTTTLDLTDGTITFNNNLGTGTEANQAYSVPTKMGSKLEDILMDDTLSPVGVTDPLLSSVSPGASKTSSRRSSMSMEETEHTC
Strand	E-score
CATGTGC	0.439
ACCCCGT	0.295
GGATCAC	0.32
AAGTCAC	0.329
AAGCACG	0.26
CACGTGG	0.491
CATGATA	0.364
CACCTGC	0.277

Mixed results
B1: ZNF598 RING domain (UniProt Q86UK7); chain AAAPERGGGSCVLCCGDLEATALGRCDHPVCYRCSTKMRVLCEQRYCAVCREELRQVVFGK
Substance	target or system	assay	system	setting	scale	quantity	value
NONO (Homo sapiens, UniProt Q15233)	PSPC1 (Homo sapiens, UniProt Q8WXF1)	cross-linking MS	cell fractions	together with: DSSO		cross-linked residues	K109 to K14
ETFRLLRSF	HLA class I histocompatibility antigen, A alpha chain, allele A*26:03 (Homo sapiens, UniProt P04439)	peptide-MHC binding	peptide	concentration not given		binding	inactive
COQ3 (Homo sapiens, UniProt Q9NZJ6)	COQ6 (Homo sapiens, UniProt Q9Y2Z9)	cross-linking MS		hits only		interaction screen	cross-linked
B1 (ZNF598 RING domain)	UBE2D2 UBC core domain (UniProt P62837)	yeast two-hybrid	yeast	mostly zero background	reference: not given, higher = stronger interaction	lacZ reporter activity	0
SNRPGP15 (Homo sapiens, UniProt A8MWD9)	SNRPE (Homo sapiens, UniProt P62304)	cross-linking MS		hits only		interaction screen	cross-linked
PYCR1 (Homo sapiens, UniProt P32322)	PYCR2 (Homo sapiens, UniProt Q96C36)	cross-linking MS		hits only		interaction screen	cross-linked

Excerpt of the above (study 2):
Strand	E-score
AAGTCAC	0.329
AAGCACG	0.26
CACGTGG	0.491
CATGATA	0.364
